Assay results of several laboratories.
± marks the error that the study gave.
Chain of UniProt P37136 (whole entry, looked up): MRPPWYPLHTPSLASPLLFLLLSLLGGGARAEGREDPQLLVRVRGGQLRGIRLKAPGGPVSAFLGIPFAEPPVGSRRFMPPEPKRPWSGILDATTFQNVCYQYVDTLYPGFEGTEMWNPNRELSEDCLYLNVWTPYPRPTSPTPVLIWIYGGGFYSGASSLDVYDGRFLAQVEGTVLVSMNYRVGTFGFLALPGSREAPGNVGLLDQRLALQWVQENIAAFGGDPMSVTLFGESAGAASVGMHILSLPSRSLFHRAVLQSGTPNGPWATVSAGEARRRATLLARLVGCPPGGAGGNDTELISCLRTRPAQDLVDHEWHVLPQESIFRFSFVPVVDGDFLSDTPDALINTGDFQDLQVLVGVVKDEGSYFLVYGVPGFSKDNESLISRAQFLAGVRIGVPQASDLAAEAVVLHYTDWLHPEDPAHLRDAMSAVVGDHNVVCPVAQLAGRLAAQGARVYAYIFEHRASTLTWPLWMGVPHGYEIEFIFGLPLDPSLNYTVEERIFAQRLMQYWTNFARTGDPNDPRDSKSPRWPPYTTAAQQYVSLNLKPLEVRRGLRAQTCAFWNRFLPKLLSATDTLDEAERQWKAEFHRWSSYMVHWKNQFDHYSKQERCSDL

semaglutide
participants with adverse events (measured: severe; human, safety analysis set; concentration not given, 32 weeks, run-in): 6.3%

maraviroc
Cmax (human, White, CYP3A5 poor metabolizers, plasma; 300 mg twice daily): 731 ng/mL

chicoric acid
terminal half-life (UPLC; broiler chicken, plasma; oral gavage, 20 mg/kg): 4.26 ± 1.33 h

deucravacitinib
Cmax (human; oral, 1 mg, single dose): 3.33 ng/mL

phoxim-oxon
IC50 (Acetylcholinesterase (Ache, Rattus norvegicus, UniProt P37136); enzyme activity, inhibitor, Ellman; rat, postnatal day 70, heart homogenate; 15 min, 37 °C): 8 nM

Some of these lines once more:
semaglutide
participants with adverse events (measured: severe; human, safety analysis set; concentration not given, 32 weeks, run-in): 6.3%
